Published values of several laboratories.
Each line is one published result; not all experiments were run side by side. “And” joins repeats or separate records; there may be more than shown. Numbers after ± are the reported error.

CN(C)Cc1nc(Nc2ccc(-c3cnc4cc(F)ccn34)c3c2C(=O)NC3)ccc1C1CCOC1 (stereo not drawn)  pSLP76 decrease (mouse EMT6 tumour model, whole blood; 75 mg/kg, 2 h): > 50%
CCCCCCCCCCCCCCCC(=O)NCCCC[C@H](NC(=O)[C@H](CCC(=O)O)NC(=O)[C@H](Cc1ccc(O)cc1)NC(=O)[C@H](CCC(=O)O)NC(=O)COCC(=O)NCCCOCCOCCOCCCNC(=O)[C@H](Cc1ccccc1)NC(=O)[C@H](CC(N)=O)NC(=O)[C@H](Cc1c[nH]cn1)NC(=O)[C@@H](NC(=O)[C@H](CC(=O)O)NC(=O)[C@H](CCC(N)=O)NC(=O)[C@H](CC(C)C)NC(=O)[C@H](CCCCN)NC(=O)[C@H](CCCCN)NC(=O)[C@H](CCCNC(=N)N)NC(=O)[C@H](CC(C)C)NC(=O)[C@H](Cc1c[nH]c2ccccc12)NC(=O)[C@H](CCC(=O)O)NC(=O)[C@@H](NC(=O)[C@H](CCCNC(=N)N)NC(=O)[C@H](CCC(=O)O)NC(=O)[C@H](CCSC)NC(=O)[C@H](CO)NC(=O)[C@H](CC(N)=O)NC(=O)[C@H](CC(C)C)NC(=O)[C@H](Cc1c[nH]cn1)NC(=O)[C@H](CCCCN)NC(=O)CNC(=O)[C@H](CC(C)C)NC(=O)[C@H](CC(N)=O)NC(=O)[C@H](Cc1c[nH]cn1)NC(=O)[C@H](CCSC)NC(=O)[C@H](CC(C)C)NC(=O)[C@H](CCC(N)=O)NC(=O)[C@@H](NC(=O)[C@H](CCC(=O)O)NC(=O)[C@H](CO)NC(=O)[C@@H](NC(=O)[C@@H](N)CO)C(C)C)[C@@H](C)CC)C(C)C)C(C)C)C(=O)N[C@@H](CCC(=O)O)C(=O)N[C@@H](Cc1ccc(O)cc1)C(=O)N[C@@H](CCC(=O)O)C(N)=O  bone volume/total volume (micro-CT; humanized PTH1R mouse, femur; dose not given): 37.7% and 44.9%
COC1OC(C)C(OS(=O)(=O)O)C(OC2OC(C)C(OS(=O)(=O)O)C(OC3OC(C)C(OS(=O)(=O)O)C(OC4OC(C)C(OS(=O)(=O)O)C(OC5OC(C)C(OS(=O)(=O)O)C(OC6OC(C)C(OS(=O)(=O)O)C(OC7OC(C)C(OS(=O)(=O)O)C(OS(=O)(=O)O)C7O)C6O)C5O)C4O)C3O)C2O)C1O (stereo not drawn)  activated partial thromboplastin time (human plasma; 128 µg/mL): 38.5 ± 0.3 s
COC(=O)C1CN1S(=O)(=O)c1ccc2cc(C)ccc2c1 (stereo not drawn)  tumour growth inhibition (mouse, Lewis lung carcinoma; ip, 100 mg/kg, 288 h): 38%
COC1CN([C@H]2CC[C@H]([C@@]3(C)Oc4c(Cl)cc(C(=O)NCc5c(SC)cc(C)[nH]c5=O)c(C)c4O3)CC2)C1  log2 fold change (RNA-seq, item: EPB41L4A; human, whole blood; dose not given, 24 h; relative to: pretreatment baseline): 1.18
COc1cnc2cccc(N3CCc4c(cc(Cn5ccnc5)cc4-c4cn(C)nc4C(F)(F)F)C3=O)c2c1  tumour volume (BALB/c nude mice, MV4-11 xenograft; intraperitoneal, 50 mg/kg, day 21): 274 mm3 and 183 mm3 and 239 mm3 and 160 mm3 and 310 mm3 and 215 mm3
O=C(Nc1ccc(C2CCCCC2)cc1)C1CC1  hepatic clearance (hepatocyte stability; cryopreserved human hepatocytes; 1 µM): 18 mL/min/kg
COC1OC(C)C(O)C(OC2OC(C)C(O)C(OC3OC(C)C(O)C(OC4OC(C)C(O)C(OC5OC(C)C(O)C(OC6OC(C)C(O)C(OS(=O)(=O)O)C6OS(=O)(=O)O)C5OS(=O)(=O)O)C4OS(=O)(=O)O)C3OS(=O)(=O)O)C2OS(=O)(=O)O)C1OS(=O)(=O)O (stereo not drawn)  activated partial thromboplastin time (human plasma; 128 µg/mL): 37.4 ± 0.3 s
CC(=O)[O-].O.O.[O-]c1ccc(Br)cc1C=NCCN1CCOCC1.[Zn+2]  inhibition (DPPH radical scavenging; 40 µM): 10.3%
CC(C)CC(=O)Nc1ccc([C@H]2[C@@H](F)[C@@H](F)C[C@@H](F)[C@H]2F)cc1  hepatic clearance (liver microsome stability; human liver microsomes; 1 µM, without NADPH): 3.9 mL/min/kg
COC1OC(C)C(OC2OC(C)C(OS(=O)(=O)O)C(OC3OC(C)C(OC4OC(C)C(OS(=O)(=O)O)C(OS(=O)(=O)O)C4O)C(OS(=O)(=O)O)C3O)C2O)C(OS(=O)(=O)O)C1O (stereo not drawn)  activated partial thromboplastin time (human plasma; 128 µg/mL): 33.6 ± 0.2 s
COc1ccc(NC(=O)c2ccc3[nH]c(-c4ccc(N(C)C)cc4)nc3c2)cn1  tumour volume (CT26, BALB/c mice, subcutaneous syngeneic graft; dose not given, day 4): 86.8 mm3 and 119 mm3 and 100 mm3 and 242 mm3

For quick reference, copied from above:
COC1OC(C)C(OS(=O)(=O)O)C(OC2OC(C)C(OS(=O)(=O)O)C(OC3OC(C)C(OS(=O)(=O)O)C(OC4OC(C)C(OS(=O)(=O)O)C(OC5OC(C)C(OS(=O)(=O)O)C(OC6OC(C)C(OS(=O)(=O)O)C(OC7OC(C)C(OS(=O)(=O)O)C(OS(=O)(=O)O)C7O)C6O)C5O)C4O)C3O)C2O)C1O (stereo not drawn)  activated partial thromboplastin time (human plasma; 128 µg/mL): 38.5 ± 0.3 s
